Experimental data collected from several papers.
± gives the spread as reported.

SMILES	assay	test system	conditions	how to read	quantity	value
C=CC(=O)Nc1cc(Nc2nccc(-c3cn(C)c4ccccc34)n2)c(OCC(F)(F)F)nc1N(C)CCNC	LC-MS	human liver microsomes	3 µM, 60 min, added: sulfaphenazole 6 µM	reference: no inhibitor	remaining parent compound	55%
CC(C)(O)[C@H]1Cc2cc3ccc(=O)oc3cc2O1		spiked rat plasma QC samples	0.1, 0.5, 5.0 µg/mL, 4 weeks, -20 °C		remaining analyte	97.6 ± 6.8%
CCCC1OC2CC3C4CCC5=CC(=O)C=CC5(C)C4C(O)CC3(C)C2(C(=O)COC(=O)CN(C)C)O1 (stereo not shown)		human plasma	200 µg/mL, 8 h, 37 °C		remaining conjugate	< 2%
CC[C@H](C)[C@H](N)C(=O)N1CCC[C@H]1C(=O)NCC(=O)NCC(=O)O	diketopiperazine formation, ESI-MS	1-propanol	5 µM, 90 min, 70 °C, 0.5% acetic acid	reference: initial signal	remaining peptide	~74%
Cn1cc(-c2ccnc(N)n2)c2ccccc21	LC-MS	human liver microsomes	3 µM, 60 min, added: quercetin 20 µM	reference: no inhibitor	remaining parent compound	70%
CCCC(CCC)NC(=O)c1ccc(O)c(OC)c1		rat liver microsomes	1.0 µM, 60 min, pH 7.4, without NADPH		remaining parent compound	81.1%
C=CC(=O)Nc1cc(Nc2nccc(-c3cn(C)c4ccccc34)n2)c(OCC(F)(F)F)nc1N(C)CCN(C)C	LC-MS	human liver microsomes	3 µM, 60 min, added: α-naphthoflavone 2 µM	reference: no inhibitor	remaining parent compound	89%
CNC(=O)c1ccc(N2CCN(Cc3ccc4nc(C)c(=O)[nH]c4c3F)CC2)c([18F])n1		non-human primate liver microsomes	90 min		remaining parent	> 95%
C=CC(=O)Nc1cc(Nc2nccc(-c3cn(C)c4ccccc34)n2)c(OCC(F)(F)F)nc1NCCN(C)C	LC-MS	human liver microsomes	3 µM, 60 min, added: α-naphthoflavone 2 µM	reference: no inhibitor	remaining parent compound	96%
O=C([O-])CN1CCN(CC(=O)[O-])CC(Cc2ccc(NC(=S)NCCOCCOCCOCCOCCOCCOCCOCCNC(=O)CCCC(=O)NCc3ccc(-c4nncnn4)cc3)cc2)N(CC(=O)[O-])CC1.[64Cu+2] (stereo not shown)		PBS	4 h, pH 7.4, 37 °C		remaining intact compound	83.2 ± 4.6%
C[C@@H](O)[C@H](NC(=O)[C@@H](NC(=O)[C@@H](N)CCCCN)[C@@H](C)O)C(=O)N[C@@H](CCCCN)C(=O)N[C@@H](CO)C(=O)O	LC-MS/MS	hairless mouse skin homogenate	40 µg/mL, 60 min, pH 7.4, 37 °C		remaining compound	1.5%
CC[C@H](C)[C@H](NC(=O)CNC(=O)CNC(=O)c1ccc2c(c1)C(=O)OC21c2ccc(O)cc2Oc2cc(O)ccc21)C(=O)N[C@@H](Cc1ccc(O)cc1)C(=O)N[C@@H](C)C(=O)N(C)CC(=O)N1CCC[C@H]1C(=O)N(C)[C@@H](Cc1ccccc1)C(=O)N[C@@H](CCCCN)C(=O)N[C@@H](CCCCN)C(=O)N[C@@H](CCCCN)C(=O)N[C@@H](C)C(N)=O	CE-LIF	Baf/BCR-ABL cytosolic lysate	1 µM, 60 min, 37 °C		remaining peptide	43 ± 10%
C=CC(=O)Nc1cc(Nc2nccc(-c3cn(C)c4ccccc34)n2)c(OCC(F)(F)F)nc1NC	LC-MS	human liver microsomes	3 µM, 60 min, added: sulfaphenazole 6 µM	reference: no inhibitor	remaining parent compound	62%
CCCC(CCC)NC(=O)c1ccc(OC)c(O)c1		rat liver microsomes	1.0 µM, 60 min, pH 7.4, without NADPH		remaining parent compound	94.9%
COc1cc(NC(C)=O)c2c(c1O)-c1c(OC)c(OC)cc3c1C(C2)N(C)CC3 (stereo not shown)		rat liver homogenate	0.5 µg/mL, 4 h, room temperature, short-term storage		remaining compound	89.7 ± 3.2%
C=CC(=O)Nc1cc(Nc2nccc(-c3cn(C)c4ccccc34)n2)c(O)nc1N(C)CCN(C)C	LC-MS	human liver microsomes	3 µM, 60 min, added: sulfaphenazole 6 µM	reference: no inhibitor	remaining parent compound	92%
COc1ccc2[nH]cc(C[C@H](NC(=O)CCN)C(=O)N[C@@H](Cc3ccc(Cl)cc3)C(=O)N[C@@H](Cc3ccncc3)C(N)=O)c2c1	EphA4-ephrin-A5 binding, antagonist, ELISA	mouse serum	concentration not given, 24 h, 37 °C		remaining binding	~80%
C[C@@H]1NC(=O)CNC(=O)c2ccc(cc2)S(=O)(=O)Oc2ccc(cc2)C[C@@H](C(N)=O)NC(=O)CNC1=O		PBS	1 mg/mL, 24 h, pH 9, 65 °C		remaining intact peptide	90%
NC12CNCCNCC(NCc3ccc(CNC(=O)CCCC(=O)NCc4ccc(-c5nncnn5)cc4)cc3)(CNCCNC1)CNCCNC2.[64Cu+2]		PBS	4 h, pH 7.4, 37 °C		remaining intact compound	93.3 ± 0.5%
O=C([O-])CN1CCN(CC(=O)[O-])CCN(CC(=O)[O-])C(Cc2ccc(NC(=S)NCCc3ccc4c(c3)C3C=CCC3C(c3cc5c(cc3Br)OCO5)N4)cc2)CN(CC(=O)[O-])CC1.[111In+3] (stereo not shown)		mouse plasma	up to 4 days, 37 °C, In(III) complex		remaining intact compound	> 90%
COC(=O)c1ccc2c(c1)NC(=O)/C2=C(\Nc1ccc2c(c1)CCN2C(=O)CN1CCOCC1)c1ccccc1		human plasma	1 µM, 4 h, 37 °C		remaining compound	109%
CN(Cc1ccc(F)cc1)Cc1cc(=O)oc2cc(O)ccc12		human serum	0.5 mM, 0 min		remaining intact compound	> 99%
[11CH3]Oc1ccc(Cc2cn[nH]c2)nc1-c1cccc([N+](=O)[O-])c1		rat plasma in vitro	30 min, room temperature		remaining parent	97.2%
N[C@@H](CC(=O)O)C(=O)N1CCC[C@H]1C(=O)NCC(=O)NCC(=O)O	diketopiperazine formation, ESI-MS	1-propanol	5 µM, 90 min, 70 °C, 0.5% acetic acid	reference: initial signal	remaining peptide	~33%
CSCC(NC(=O)c1cc(Cl)ccc1Cl)C(=O)NC(CC(C)C)B(O)O (stereo not shown)		dog liver microsomes	3 µM, 60 min, pH 7.4, added: NADPH		remaining compound	68 ± 1.37%
CC(C)Oc1ncnc2c1c(Cl)cn2[C@@H]1O[C@H](CO)[C@@H](O)[C@H]1O		horse liver microsomes	30 min		remaining parent compound	≥ 50%
CC#N.[Ru+2].c1ccc(-c2cccc(-c3ccccn3)n2)nc1.c1ccc(-c2ccccn2)nc1		water	24 h, 37 °C		remaining compound	84%
NC(=O)CNC(=O)[C@@H]1CCCN1C(=O)[C@@H]1CCCN1C(=O)[C@@H]1C[C@@H](O)CN1C(=O)[C@@H]1C[C@@H](O)CN1C(=O)CNC(=O)CNC(=O)[C@@H]1CCCN1C(=O)[C@@H]1C[C@@H](O)CN1C(=O)[C@@H]1C[C@@H](O)CN1C(=O)CNC(=O)[C@@H]1CCCN1C(=O)[C@@H]1CCCN1C(=O)[C@@H]1C[C@@H](O)CN1C(=O)CNC(=O)[C@@H]1C[C@@H](O)CN1C(=O)CNC(=O)[C@@H]1C[C@@H](O)CN1C(=O)[C@@H]1CCCN1C(=O)[C@@H]1C[C@@H](O)CN1C(=O)[C@@H]1CCCN1C(=O)CNC(=O)[C@@H]1CCCN1C(=O)CNC(=O)[C@@H]1C[C@@H](O)CN1C(=O)CNC(=O)[C@@H]1CCCN1C(=O)CNC(=O)CNC(=O)CNC(=O)c1ccc2c(c1)C(=O)OC21c2ccc(O)cc2Oc2cc(O)ccc21	RP-HPLC	25% mouse serum in PBS	50 µM, 24 h, 37 °C	reference: zero time point	remaining intact peptide	79.1%

Repeated from above:
SMILES	assay	test system	conditions	how to read	quantity	value
[11CH3]Oc1ccc(Cc2cn[nH]c2)nc1-c1cccc([N+](=O)[O-])c1		rat plasma in vitro	30 min, room temperature		remaining parent	97.2%
N[C@@H](CC(=O)O)C(=O)N1CCC[C@H]1C(=O)NCC(=O)NCC(=O)O	diketopiperazine formation, ESI-MS	1-propanol	5 µM, 90 min, 70 °C, 0.5% acetic acid	reference: initial signal	remaining peptide	~33%
CSCC(NC(=O)c1cc(Cl)ccc1Cl)C(=O)NC(CC(C)C)B(O)O (stereo not shown)		dog liver microsomes	3 µM, 60 min, pH 7.4, added: NADPH		remaining compound	68 ± 1.37%
